Experimental data from different studies.
Each line is one published result; not all experiments were run side by side. “And” joins repeats or separate records; there may be more than shown. ± marks the error that the study gave.
Cell line: A549

SMILES | assay | setting | IC50
CCn1nc(Cl)c2c1-c1cnc(N)c(c1)O[C@H](C)c1cc(F)ccc1-c1nn(C)cc1C2 | cell growth or viability | – | > 9.57 µM
CCOC(=O)/C=C1\S/C(=N\N=C\c2cccc3cc4ccccc4nc23)N(c2ccc(F)cc2)C1=O | cell growth or viability, MTT | 48 h | > 50 µM
O=C1C(Cl)=C(Cl)C(=O)c2c1cccc2[N+](=O)[O-] | cell growth or viability, MTT | – | 122 µM
CCCc1cc2cc(-n3nc(C)c4ncccc43)cc(N3CCC(O)CC3)c2c(=O)[nH]1 | cell growth or viability, MTS | – | 17.8 µM
CC(C)CN1C(=O)CS/C1=N\N=C\c1cccc2cc3ccccc3nc12 | cell growth or viability, MTT | 48 h | > 50 µM
CCCc1cc2cc(-n3nc(C(F)(F)F)c4c3CC(C)(C)CC4=O)cc(N3CCC(O)CC3)c2c(=O)[nH]1 | cell growth or viability, MTS | – | 4.69 µM
CCCC[N+]1=c2cc3c4cc2[O][Mn-2]1(=[C]=O)(=[C]=O)(=[C]=O)[n+]1ccc(cc1)C(=O)NCCNC(=O)c1cc[n+](cc1)[Mn-2](=[C]=O)(=[C]=O)(=[C]=O)([O]3)[N+]=4CCCC | cell growth, MTT | 48 h, LED light photolysis 1 h | 2.89 ± 0.12 µM
CC(C)[C@@H]1NC(=O)[C@@H](CCCNC(=N)N)NC(=O)[C@H]([C@@H](C)O)NC(=O)[C@@H](CCCN)NC(=O)[C@H](Cc2ccccc2)NC(=O)[C@@H](Cc2ccc(F)c(F)c2)NC1=O | cell growth or viability, ATP luminescence | – | 71.6 µM
CCCc1cc2cc(-n3nc(C4CC4)c4c3CC(C)(C)CC4=O)cc(N3CCC(O)CC3)c2c(=O)[nH]1 | cell growth or viability, MTS | – | 10.1 µM
CO[C@@H](C[C@H]1C(C)=CC[C@@H]2[C@]3(C)C[C@H](O[C@@H]4O[C@@H](C)[C@H](O)[C@@H](O)[C@H]4O)[C@@H](O)C(C)(C)[C@H]3CC[C@]21C)[C@H](N)C(=O)O | cell growth or viability, CCK-8 | 72 h | > 10 µM
CCCCCCCC(=O)[O][Pt]([Cl])([Cl])[O]C(=O)CCCCCCC.N.N | cell growth or viability, MTT | – | ~0.05 µM and 0.05 µM
CCCCCC(=O)Oc1c(C)c(OC)c2c(/C=C/c3ccccc3)c(CCCC)c(=O)oc2c1C | cell growth or viability, SRB | 72 h | > 50 µM
Cc1ccc([N+](=O)[O-])cc1S(=O)(=O)N(C)/N=C/c1cnc2ccc(Br)cn12 | cell growth or viability | – | 2.66 µM
CC(C)[C@@H]1NC(=O)[C@@H](CCCNC(=N)N)NC(=O)[C@H]([C@@H](C)O)NC(=O)[C@@H](CCCN)NC(=O)[C@H](Cc2ccc(F)c(F)c2)NC(=O)[C@@H](Cc2ccccc2)NC1=O | cell growth or viability, ATP luminescence | – | > 100 µM
CC(C)OC(=O)[C@H](CO)NCc1cc(Cl)c(OCc2cccc(-c3ccccc3)c2Br)cc1OCc1cccnc1 | cell growth or viability, MTT | – | > 10 µM
CCCN1C(=O)CS/C1=N\N=C\c1cccc2cc3ccccc3nc12 | cell growth or viability, MTT | 48 h | > 50 µM
CCCCCCC(=O)[O][Pt]([NH2])([NH2])([Cl])([Cl])[O]C(=O)CCC(C)C1CCC2C3CCC4CC(O)CCC4(C)C3CCC12C (centres unmarked) | cell growth or viability, MTT | – | 1.2 µM
Cc1ccccc1/C=C/C(=O)N[C@@H](CO)C(=O)N[C@H](C(=O)N[C@H](Cc1ccccc1)C(=O)O)[C@@H](C)O | – | – | > 20 µM
Cc1nc(Nc2ccc3c(c2)/C(=C/c2ccccc2Cl)C(=O)N3C)c2ccccc2n1 | cell growth or viability, MTT | – | 3.1 µM
CCCc1cc2cc(-n3nc(CC)c4c3CC(C)(C)CC4=O)cc(N3CCC(O)CC3)c2c(=O)[nH]1 | cell growth or viability, MTS | – | 4.41 µM
COc1cc(C2=CCCc3c2ccc(OC)c3OCc2ncc([N+](=O)[O-])n2C)cc(OC)c1OC | cell growth, SRB | 4 h exposure then 120 h oxic, oxic exposure then drug removal | 73.4 ± 21.3 µM
CC(=O)NCCOCCOCCOCCNC(=O)c1cc(C(=O)N2CCNCCNCCNCC2)c(O)c(C(=O)N2CCNCCNCCNCC2)c1 | cell growth or viability, MTT | 24 h | > 1000 µM

SMILES | assay | setting | IC50
CCCCCCCCCC(=O)Oc1c(C)c(OC)c2c(/C=C/c3ccccc3)c(CCCCCCCC)c(=O)oc2c1C | cell growth or viability, SRB | 72 h | > 50 µM
COc1cccc(N2C(=O)CS/C2=N\N=C\c2cccc3cc4ccccc4nc23)c1 | cell growth or viability, MTT | 48 h | 40.8 µM
NC1=C(Cl)C(=O)c2ccccc2C1=O | cell growth or viability, MTT | – | 16.3 µM
O=[C]=[Mn-2]12(=[C]=O)(=[C]=O)[O]c3cc4c(cc3=[N+]1CCc1ccccc1)[O][Mn-2](=[C]=O)(=[C]=O)(=[C]=O)([N+]=4CCc1ccccc1)[n+]1ccc(cc1)C(=O)Oc1ccccc1OC(=O)c1cc[n+]2cc1 | cell growth, MTT | 48 h, LED light photolysis 1 h | 2.29 ± 0.46 µM
CCCc1cc2cc(-n3nc(CC(C)C)c4c3CC(C)(C)CC4=O)cc(N3CCC(O)CC3)c2c(=O)[nH]1 | cell growth or viability, MTS | – | > 50 µM
CC(=O)NCCOCCOCCNC(=O)c1cc(C(=O)N2CCNCCNCCNCC2)c(O)c(C(=O)N2CCNCCNCCNCC2)c1 | cell growth or viability, MTT | 24 h | > 1000 µM
COc1ccccc1/C=C1\C(=O)N(C)c2ccc(Nc3nc(C)nc4ccccc34)cc21 | cell growth or viability, MTT | – | 2.72 µM
c1ccc2c(-c3cn(-c4ccncc4)nn3)c3ccccc3c(-c3cn(-c4ccncc4)nn3)c2c1 | cell growth or viability, MTT | 24 h | > 20 µM
O=C(NCc1cc(F)cc(F)c1)[C@@]1(O)CCN(c2ccc3[nH]ccc3c2)C1=O | cell growth or viability | – | 0.3 µM
C=CCOCO[C@H](C(=O)NC[C@@H]1C[C@@H](OC)C(C)(C)[C@@H](C[C@@H](COC)OC)O1)[C@@]1(OC)CC(=C)[C@@H](C)[C@@H](C)O1 | cell viability, sulforhodamine B | 72 h, 37 °C, added: 100 µM H2O2 | 1.48 ± 0.39 µM
CC(C)=CC1OC(C)(C)C2C=C3C(=O)C(Cl)=CC(O)C3C3C(O)C4OC4C(=O)C132 (centres unmarked) | cell growth or viability, MTS | – | 3.66 µM
CCCc1cc2cc(-n3cc(C)c4c3CC(C)(C)CC4=O)cc(N3CCC(O)CC3)c2c(=O)[nH]1 | cell growth or viability, MTS | – | 5.77 µM
Cc1nc(Nc2ccc3c(c2)/C(=C/c2c[nH]c4ccccc24)C(=O)N3)c2ccccc2n1 | cell growth or viability, MTT | – | 0.95 µM
NC(=O)c1ccc(-c2ccccc2Cl)c2c3c([nH]c12)CC[C@H](N)C3 | cell growth or viability | – | 0.0448 µM
CCCCCCCC(=O)Oc1c(C)c(OC)c2c(/C=C/c3ccccc3)c(CCCCCC)c(=O)oc2c1C | cell growth or viability, SRB | 72 h | > 50 µM
COC(=O)[C@@H](NC(=O)[C@@H](NC(=O)OC(C)(C)C)C(C)C)C(C)C | cell growth or viability, SRB | – | 0.67 µM and 1.49 µM and 0.76 µM
O=C(O)c1ccc(-c2ccc(O)cc2)c2c1C=C(c1ccc(O)cc1)OC2(c1ccc(O)cc1)c1ccc(O)cc1 | cell growth or viability, MTT | 48 h | 9.61 µM
Cc1ccc(C(C)C)cc1.Cc1ccc(C(C)C)cc1.Cc1ccc(C(C)C)cc1.Cc1ccc(C(C)C)cc1.O=S(=O)(O)C(F)(F)F.O=S(=O)(O)C(F)(F)F.O=S(=O)(O)C(F)(F)F.O=S(=O)(O)C(F)(F)F.c1ccc2c3c4ccccc4c(c2c1)-c1cn(nn1)-c1cc[n+](cc1)[Ru-]1[O]c2cc4c(cc2=[O+]1)[O][Ru-]([O+]=4)[n+]1ccc(cc1)-n1cc(nn1)-c1c2ccccc2c(c2ccccc12)-c1cn(nn1)-c1cc[n+](cc1)[Ru-]1[O]c2cc4c(cc2=[O+]1)[O][Ru-]([O+]=4)[n+]1ccc(cc1)-n1cc-3nn1 | cell growth or viability, MTT | 24 h | > 20 µM
O=Cc1ccc(-c2ccc(O)cc2)c(C(=C2C=CC(=O)C=C2)c2ccc(O)cc2)c1C#Cc1ccc(O)cc1 | cell growth or viability, MTT | 48 h | 10.6 µM
C=CC(=O)N1CC2C(=O)N(CCN(C)C)c3c(c4cc(Cl)c(-c5c(O)cccc5F)nc4n(-c4c(C)ccnc4C(C)C)c3=O)N2CC1C (centres unmarked) | cell growth or viability | – | > 10 µM
CCCC(=O)Oc1c(C)c(OC)c2c(c1C)OC(=O)[C@@H](CC)[C@]2(O)/C=C/c1ccccc1 (racemic) | cell growth or viability, SRB | 72 h | > 50 µM
CCOC(=O)/C=C1\S/C(=N\N=C\c2cccc3cc4ccccc4nc23)N(C)C1=O | cell growth or viability, MTT | 48 h | > 50 µM

Excerpt of the above:
SMILES | assay | setting | IC50
COc1ccccc1/C=C1\C(=O)N(C)c2ccc(Nc3nc(C)nc4ccccc34)cc21 | cell growth or viability, MTT | – | 2.72 µM
c1ccc2c(-c3cn(-c4ccncc4)nn3)c3ccccc3c(-c3cn(-c4ccncc4)nn3)c2c1 | cell growth or viability, MTT | 24 h | > 20 µM
O=C(NCc1cc(F)cc(F)c1)[C@@]1(O)CCN(c2ccc3[nH]ccc3c2)C1=O | cell growth or viability | – | 0.3 µM
C=CCOCO[C@H](C(=O)NC[C@@H]1C[C@@H](OC)C(C)(C)[C@@H](C[C@@H](COC)OC)O1)[C@@]1(OC)CC(=C)[C@@H](C)[C@@H](C)O1 | cell viability, sulforhodamine B | 72 h, 37 °C, added: 100 µM H2O2 | 1.48 ± 0.39 µM
CC(C)=CC1OC(C)(C)C2C=C3C(=O)C(Cl)=CC(O)C3C3C(O)C4OC4C(=O)C132 (centres unmarked) | cell growth or viability, MTS | – | 3.66 µM
CCCc1cc2cc(-n3cc(C)c4c3CC(C)(C)CC4=O)cc(N3CCC(O)CC3)c2c(=O)[nH]1 | cell growth or viability, MTS | – | 5.77 µM
